Published values collected from several papers.
Lines come from different studies, so protocols differ. Values joined by “and” are separate records of one study, mostly repeats; a detail may differ. ± gives the spread as reported. In brackets after ≈: the same amount, converted by molar mass.

| Structure (SMILES) | organism | assay | test system | setting | how to read | measurement | value |
| --- | --- | --- | --- | --- | --- | --- | --- |
| COc1ccc(S(=O)(=O)N(CCO)c2ccccc2CN(C)C/C=C/c2ccc(Cl)cc2)cc1 | murine hepatitis virus | viral replication, nanoluciferase reporter | DBT | 1 µM | reference: DMSO vehicle | inhibition | 20% |
| Nc1ncnc2c1ncn2[C@@H]1O[C@@H]2COP(=O)(O)O[C@H]3[C@@H](O)[C@H](n4cnc5c(=O)[nH]cnc54)O[C@@H]3COP(=O)(O)O[C@H]2[C@H]1O | West Nile virus | RNA sequencing, item: innate immune system R-HSA-168249 | HFF-1 cells | concentration not given, upregulated pathway | reference: WNV-infected untreated cells | fold enrichment | 1.91 |
| CS(=O)(=O)CCCn1c(Cn2c(=O)n(CC(F)(F)F)c3ccncc32)cc2cc(Cl)ccc21 | respiratory syncytial virus | RT-qPCR | hospitalized infants 1-24 months, nasal swab | oral, 8 mg/kg daily, day 7, cohort 6-24 months | reference: baseline | LS mean viral load change | -2.6 log10 copies/mL |
| C#Cc1ccc(O)c(C=NNC(=O)c2ccc(COC)cc2)c1 | Aspergillus fumigatus |  | 293 | unit not given, together with: voriconazole | lower = more synergy | FICI | 2 |
| CNC(=O)c1cc(Oc2ccc(NC(=O)Nc3ccc(Cl)c(C(F)(F)F)c3)cc2)ccn1 | Aspergillus fumigatus |  |  | 20 µM | reference: untreated | metabolic activity | ≥ 80% |
| CN(C)C(=O)Cn1cc(-c2ccc(-c3nnc4ccccn34)cc2)cn1 | murine hepatitis virus | viral replication, nanoluciferase reporter | DBT | 1 µM | reference: DMSO vehicle | inhibition | 44% |
| N=C(N)NCCC[C@H](NC(=O)[C@H](Cc1c[nH]c2ccccc12)NC(=O)[C@H](CCCNC(=N)N)NC(=O)[C@H](Cc1c[nH]c2ccccc12)NC(=O)[C@H](Cc1c[nH]c2ccccc12)NC(=O)[C@H](Cc1c[nH]c2ccccc12)NC(=O)[C@H](CCCNC(=N)N)NC(=O)[C@H](Cc1c[nH]c2ccccc12)NC(=O)[C@@H](N)CCCNC(=N)N)C(=O)N[C@@H](Cc1c[nH]c2ccccc12)C(N)=O | Candida albicans | broth microdilution | alveolar fluid isolate, RPMI 1640-MOPS | 48 h, 30 °C |  | MIC | 16 µM (≈ 28.1 µg/mL) |
| CN(C(=O)c1ccccc1)c1cc(N(C)c2ccc3c(c2)CCc2ccc(C(=O)NCCN4CCOCC4)cc2C3=O)ccc1F | murine hepatitis virus | viral replication, nanoluciferase reporter | DBT | 1 µM, 10 h | reference: DMSO vehicle | inhibition | -11% |
| O=[N+]([O-])c1cc2c(ccc3cc(Br)ccc32)o1 | Mycobacterium avium subsp. hominissuis | REMA | ATCC 25291 |  |  | MIC90 | > 32 µg/mL |
| COc1cnc(OC)n2nc(NS(=O)(=O)c3c(OCC(F)F)cccc3C(F)(F)F)nc12 | Eclipta prostrata |  | greenhouse | postemergence, 150 g ai/ha, 21 days |  | fresh weight inhibition | 93.5 ± 1.64% |
| CN1CCN(C(=O)C(C)(C)c2ccc(C(=O)Nc3cn4cc(-c5ccncc5)ccc4n3)cc2)CC1 | murine hepatitis virus | viral replication, nanoluciferase reporter | DBT | 1 µM | reference: DMSO vehicle | inhibition | -4% |
| CCCC(CCC)C(=O)Nc1ccccc1O | Artemia franciscana | LC-MS/MS metabolomics, item: 1-aminocyclopropanecarboxylic acid | larvae | concentration not given, 24 h, LC1 concentration | reference: vehicle | fold change | 1.39 |
| CN(C)C(=O)Cn1cc(-c2ccc(-c3cncc4ccccc34)cc2)cn1 | murine hepatitis virus | viral replication, nanoluciferase reporter | DBT | 1 µM, 10 h | reference: DMSO vehicle | inhibition | 41% |
| N=C(N)NCCC[C@H](NC(=O)CN)C(=O)N[C@@H](Cc1c[nH]c2ccccc12)C(=O)N[C@@H](CCCNC(=N)N)C(=O)N[C@@H](Cc1c[nH]c2ccccc12)C(=O)N[C@@H](Cc1c[nH]c2ccccc12)C(=O)N[C@@H](Cc1c[nH]c2ccccc12)C(=O)N[C@@H](CCCNC(=N)N)C(=O)N[C@@H](Cc1c[nH]c2ccccc12)C(=O)N[C@@H](CCCNC(=N)N)C(=O)N[C@@H](Cc1c[nH]c2ccccc12)C(N)=O | Candida albicans | broth microdilution | SP3902, RPMI 1640-MOPS | 48 h, 30 °C |  | MIC | 8 µM (≈ 14.5 µg/mL) |
| CCCCCCCCCC(=O)N[C@@H](Cc1c[nH]c2ccccc12)C(=O)N[C@H](CC(N)=O)C(=O)N[C@@H](CC(=O)O)C(=O)N[C@@H]1C(=O)NCC(=O)N[C@@H](CCCN)C(=O)N[C@@H](CC(=O)O)C(=O)N[C@H](C)C(=O)N[C@@H](CC(=O)O)C(=O)NCC(=O)N[C@H](CO)C(=O)N[C@@H]([C@H](C)CC(=O)O)C(=O)N[C@@H](CC(=O)c2ccccc2N)C(=O)O[C@@H]1C | Enterococcus faecalis and Enterococcus faecium |  |  |  |  | MIC90 | 2 µg/mL (≈ 1.23 µM) |
| CC(C)C[C@H](NC(=O)[C@H](CCCNC(=N)N)NC(=O)[C@H](Cc1c[nH]c2ccccc12)NC(=O)[C@H](CCCNC(=N)N)NC(=O)[C@H](Cc1c[nH]c2ccccc12)NC(=O)[C@H](Cc1c[nH]c2ccccc12)NC(=O)[C@H](Cc1c[nH]c2ccccc12)NC(=O)[C@H](CCCNC(=N)N)NC(=O)[C@H](Cc1c[nH]c2ccccc12)NC(=O)[C@H](CCCNC(=N)N)NC(=O)CN)C(N)=O | Candida albicans | broth microdilution | 56452, RPMI 1640-MOPS | 48 h, 30 °C |  | MIC | 8 µM (≈ 13.9 µg/mL) |
| CC(=O)C1=CC[C@H]2[C@@H]3CCC4=CC(=O)CC[C@]4(C)[C@H]3C[C@@H](O)[C@]12C | Leishmania mexicana | parasite growth, Giemsa stain count | C57BL/6 mouse bone marrow-derived macrophages, amastigotes | 48 h |  | IC50 | 1.4 µM |
| COc1cc2oc([N+](=O)[O-])cc2c2ccccc12 | Enterobacter cloacae | REMA |  |  |  | MIC90 | > 32 µg/mL |
| COC(=O)C1=C(C)NC(C)=C(C(=O)OC(C)(C)CN(C)CCC(c2ccccc2)c2ccccc2)C1c1cccc([N+](=O)[O-])c1 (centres unmarked) | Aspergillus fumigatus |  |  | 3.95 µM, 48 h, conidia, together with: caspofungin 0.2 µg/mL | reference: caspofungin alone | CFU relative | 0.655 and 0.845 |
| Nc1ncnc2c([C@@H]3N[C@H](CO)[C@@H](O)[C@H]3O)c[nH]c12 | Measles morbillivirus | viral replication | Vero 76, Chicago | 0.9 µM |  | inhibition | 5% |
| Nc1ccn([C@@H]2O[C@H](CO)[C@@H](O)C2(F)F)c(=O)n1 | human alphaherpesvirus 1 |  | primary human keratinocytes, K26 GFP |  | reference: CC50 over IC50 | selectivity index | < 0.62 |
| CS(=O)(=O)N1CCCC(NC(=O)[C@H](CCC2CCCCC2)NC(=O)c2ccc(CNC(=O)c3cnc4ccccn34)cc2)C1 (some centres unmarked) | murine hepatitis virus | viral replication, nanoluciferase reporter | DBT | 1 µM, 10 h | reference: DMSO vehicle | inhibition | -11% |
| COc1cc2ccc3oc([N+](=O)[O-])cc3c2cc1OC | Mycobacterium avium subsp. hominissuis | REMA | ATCC 25291 |  |  | MIC90 | 0.25 µg/mL (≈ 0.915 µM) |
